Measured values collected from several papers.
Lines come from different studies, so protocols differ. Values joined by “and” are separate records of one study, mostly repeats; a detail may differ. Numbers after ± are the reported error.
Sequence of UniProt P42336 (whole entry, unmodified, looked up): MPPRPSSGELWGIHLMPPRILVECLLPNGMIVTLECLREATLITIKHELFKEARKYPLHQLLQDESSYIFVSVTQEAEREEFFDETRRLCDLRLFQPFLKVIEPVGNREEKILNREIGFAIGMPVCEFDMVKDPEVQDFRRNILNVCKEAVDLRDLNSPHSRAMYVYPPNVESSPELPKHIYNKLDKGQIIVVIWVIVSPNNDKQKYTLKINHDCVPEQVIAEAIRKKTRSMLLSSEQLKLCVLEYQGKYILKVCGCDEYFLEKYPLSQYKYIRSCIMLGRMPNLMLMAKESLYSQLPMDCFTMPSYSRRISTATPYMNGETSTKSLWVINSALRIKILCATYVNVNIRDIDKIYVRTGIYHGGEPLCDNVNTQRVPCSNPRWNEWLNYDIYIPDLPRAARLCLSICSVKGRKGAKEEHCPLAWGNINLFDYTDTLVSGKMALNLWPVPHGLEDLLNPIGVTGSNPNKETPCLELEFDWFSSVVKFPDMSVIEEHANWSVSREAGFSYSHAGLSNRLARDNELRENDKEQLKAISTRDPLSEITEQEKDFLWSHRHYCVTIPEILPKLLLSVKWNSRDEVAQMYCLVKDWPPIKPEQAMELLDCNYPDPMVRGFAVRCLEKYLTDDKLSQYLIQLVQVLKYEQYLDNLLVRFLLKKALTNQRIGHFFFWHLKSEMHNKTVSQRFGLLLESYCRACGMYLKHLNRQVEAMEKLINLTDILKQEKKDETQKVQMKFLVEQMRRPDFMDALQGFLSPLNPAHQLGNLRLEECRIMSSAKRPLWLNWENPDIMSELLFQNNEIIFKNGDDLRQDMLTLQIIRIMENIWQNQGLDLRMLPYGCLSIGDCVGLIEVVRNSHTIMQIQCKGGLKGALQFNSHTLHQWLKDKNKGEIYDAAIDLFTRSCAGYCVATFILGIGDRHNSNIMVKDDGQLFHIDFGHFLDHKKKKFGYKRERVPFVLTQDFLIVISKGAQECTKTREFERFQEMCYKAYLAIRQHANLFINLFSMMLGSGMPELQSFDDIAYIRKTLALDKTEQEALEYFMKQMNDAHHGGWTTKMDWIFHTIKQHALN
Sequence of UniProt P97821 (whole entry, looked up): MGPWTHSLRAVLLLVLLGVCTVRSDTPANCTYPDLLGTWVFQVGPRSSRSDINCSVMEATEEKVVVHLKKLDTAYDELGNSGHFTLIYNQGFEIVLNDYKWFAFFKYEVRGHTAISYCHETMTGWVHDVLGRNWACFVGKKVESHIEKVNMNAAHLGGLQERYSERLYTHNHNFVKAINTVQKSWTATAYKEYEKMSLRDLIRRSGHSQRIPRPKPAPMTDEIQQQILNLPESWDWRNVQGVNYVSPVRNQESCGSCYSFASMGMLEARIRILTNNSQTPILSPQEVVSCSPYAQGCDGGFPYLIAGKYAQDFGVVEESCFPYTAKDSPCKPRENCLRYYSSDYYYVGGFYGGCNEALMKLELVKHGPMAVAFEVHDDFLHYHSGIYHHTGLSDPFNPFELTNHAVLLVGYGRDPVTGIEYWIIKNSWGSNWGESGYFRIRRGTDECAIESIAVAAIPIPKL
Sequence of UniProt Q14289 (whole entry, looked up): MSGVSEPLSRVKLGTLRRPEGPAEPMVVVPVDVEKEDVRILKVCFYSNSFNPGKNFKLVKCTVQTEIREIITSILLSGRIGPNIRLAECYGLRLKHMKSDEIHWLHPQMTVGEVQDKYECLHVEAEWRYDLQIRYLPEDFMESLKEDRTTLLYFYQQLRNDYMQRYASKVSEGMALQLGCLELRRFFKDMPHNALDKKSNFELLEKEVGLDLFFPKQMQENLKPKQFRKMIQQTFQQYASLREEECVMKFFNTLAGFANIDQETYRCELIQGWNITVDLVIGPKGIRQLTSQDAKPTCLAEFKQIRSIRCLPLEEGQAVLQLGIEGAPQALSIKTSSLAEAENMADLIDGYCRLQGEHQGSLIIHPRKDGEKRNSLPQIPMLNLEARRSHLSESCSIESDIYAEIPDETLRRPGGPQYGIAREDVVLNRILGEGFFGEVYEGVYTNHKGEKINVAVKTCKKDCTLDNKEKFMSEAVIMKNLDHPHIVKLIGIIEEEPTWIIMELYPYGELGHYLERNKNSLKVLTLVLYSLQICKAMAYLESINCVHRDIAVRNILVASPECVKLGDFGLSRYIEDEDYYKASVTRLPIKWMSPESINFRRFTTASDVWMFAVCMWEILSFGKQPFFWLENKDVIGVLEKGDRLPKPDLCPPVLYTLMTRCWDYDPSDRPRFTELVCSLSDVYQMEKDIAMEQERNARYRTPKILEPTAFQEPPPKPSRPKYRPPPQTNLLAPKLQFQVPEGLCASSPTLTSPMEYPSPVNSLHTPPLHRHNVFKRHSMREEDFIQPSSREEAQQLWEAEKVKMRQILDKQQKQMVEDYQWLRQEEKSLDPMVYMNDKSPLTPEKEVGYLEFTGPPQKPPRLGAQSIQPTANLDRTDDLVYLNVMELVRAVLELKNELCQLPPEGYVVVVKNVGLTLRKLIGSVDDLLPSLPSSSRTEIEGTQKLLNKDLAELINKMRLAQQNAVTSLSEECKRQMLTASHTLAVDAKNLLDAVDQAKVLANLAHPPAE
Sequence of UniProt Q96SB4 (whole entry, looked up): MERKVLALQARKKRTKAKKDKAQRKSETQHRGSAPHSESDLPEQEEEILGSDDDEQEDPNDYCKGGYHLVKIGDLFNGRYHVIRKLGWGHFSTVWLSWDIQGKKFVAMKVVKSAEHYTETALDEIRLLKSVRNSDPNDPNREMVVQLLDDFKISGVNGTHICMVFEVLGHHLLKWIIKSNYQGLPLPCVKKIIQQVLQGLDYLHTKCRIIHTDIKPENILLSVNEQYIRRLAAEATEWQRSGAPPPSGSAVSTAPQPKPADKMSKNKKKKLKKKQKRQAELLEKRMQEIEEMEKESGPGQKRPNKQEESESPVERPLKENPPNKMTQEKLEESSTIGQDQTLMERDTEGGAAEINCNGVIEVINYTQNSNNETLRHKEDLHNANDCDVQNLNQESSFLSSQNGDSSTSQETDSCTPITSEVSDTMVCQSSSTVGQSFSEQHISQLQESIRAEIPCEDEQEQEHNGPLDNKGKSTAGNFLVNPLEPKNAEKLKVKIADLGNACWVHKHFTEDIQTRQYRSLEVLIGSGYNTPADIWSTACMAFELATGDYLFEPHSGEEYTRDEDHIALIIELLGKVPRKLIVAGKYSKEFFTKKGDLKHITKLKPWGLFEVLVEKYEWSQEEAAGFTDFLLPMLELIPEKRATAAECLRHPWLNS
Sequence of UniProt Q07912 (whole entry, looked up): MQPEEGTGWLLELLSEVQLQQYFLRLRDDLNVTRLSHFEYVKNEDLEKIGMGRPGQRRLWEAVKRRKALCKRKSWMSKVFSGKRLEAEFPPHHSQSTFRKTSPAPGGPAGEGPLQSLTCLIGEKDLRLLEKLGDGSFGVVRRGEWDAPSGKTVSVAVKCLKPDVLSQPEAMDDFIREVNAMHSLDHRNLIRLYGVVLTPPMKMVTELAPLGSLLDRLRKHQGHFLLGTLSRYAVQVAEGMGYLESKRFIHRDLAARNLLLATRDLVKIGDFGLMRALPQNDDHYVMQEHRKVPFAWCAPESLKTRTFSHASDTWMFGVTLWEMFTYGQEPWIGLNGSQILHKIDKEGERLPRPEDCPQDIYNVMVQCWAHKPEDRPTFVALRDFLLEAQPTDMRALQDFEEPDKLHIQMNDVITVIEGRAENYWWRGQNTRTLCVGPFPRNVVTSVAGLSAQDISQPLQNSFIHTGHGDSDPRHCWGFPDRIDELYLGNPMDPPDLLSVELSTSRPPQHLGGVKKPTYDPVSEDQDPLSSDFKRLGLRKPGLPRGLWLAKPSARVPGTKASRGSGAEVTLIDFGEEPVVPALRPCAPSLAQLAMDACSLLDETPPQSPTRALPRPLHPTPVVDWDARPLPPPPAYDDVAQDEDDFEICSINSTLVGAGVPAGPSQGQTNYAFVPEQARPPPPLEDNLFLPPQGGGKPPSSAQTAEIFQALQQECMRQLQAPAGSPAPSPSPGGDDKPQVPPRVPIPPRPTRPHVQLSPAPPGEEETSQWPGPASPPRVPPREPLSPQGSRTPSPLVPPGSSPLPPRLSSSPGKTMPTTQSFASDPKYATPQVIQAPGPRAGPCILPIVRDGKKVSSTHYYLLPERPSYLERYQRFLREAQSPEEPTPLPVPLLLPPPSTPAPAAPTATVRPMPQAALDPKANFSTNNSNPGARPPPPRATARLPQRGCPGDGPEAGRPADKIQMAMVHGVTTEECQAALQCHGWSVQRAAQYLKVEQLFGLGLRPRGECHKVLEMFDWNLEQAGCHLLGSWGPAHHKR
Sequence of UniProt P42680 (whole entry, looked up): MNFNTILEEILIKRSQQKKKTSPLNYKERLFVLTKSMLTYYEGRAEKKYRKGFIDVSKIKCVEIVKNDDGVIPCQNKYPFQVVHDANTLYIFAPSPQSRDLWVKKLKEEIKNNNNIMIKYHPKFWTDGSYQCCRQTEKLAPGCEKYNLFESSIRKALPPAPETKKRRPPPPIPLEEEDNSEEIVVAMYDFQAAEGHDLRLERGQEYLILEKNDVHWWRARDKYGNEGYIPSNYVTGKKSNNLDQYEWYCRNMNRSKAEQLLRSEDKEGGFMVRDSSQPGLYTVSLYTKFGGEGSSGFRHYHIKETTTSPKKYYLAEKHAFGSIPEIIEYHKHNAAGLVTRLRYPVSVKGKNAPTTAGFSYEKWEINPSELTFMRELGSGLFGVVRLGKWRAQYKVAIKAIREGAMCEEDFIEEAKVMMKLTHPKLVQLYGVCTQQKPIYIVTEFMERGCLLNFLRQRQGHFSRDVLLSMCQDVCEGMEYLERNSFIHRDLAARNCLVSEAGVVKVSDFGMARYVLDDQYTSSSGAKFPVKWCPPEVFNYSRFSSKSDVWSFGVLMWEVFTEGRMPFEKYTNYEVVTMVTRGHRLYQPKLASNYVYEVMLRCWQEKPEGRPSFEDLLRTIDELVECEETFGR

| Structure (SMILES) | target | assay | setting | how to read | remaining activity |
| --- | --- | --- | --- | --- | --- |
| Cc1c(NS(=O)(=O)c2cc(Cl)cc(Cl)c2O)cccc1-n1cn[nH]c1=O | malate dehydrogenase | enzyme activity, inhibitor | 200 µM, pH 7.0, 1% DMSO, aggregation counter-screen |  | 78% |
| O=C(NC1CCC1)c1ccc2nc(-c3cccc(NS(=O)(=O)NCCN4CCCCC4)c3)cn2c1 | PIK3CA (Homo sapiens, UniProt P42336, H1047Y) | enzyme activity | 10 µM |  | 100% |
| Cc1cccc(C)c1C(=O)OCC(=O)[C@H](CCCCN)NC(=O)[C@H](CCCNC(=N)N)NC(=O)OCc1ccccc1 | Ctsc (Mus musculus, UniProt P97821) | inhibitor | 0.01 µM, room temperature, added: AMC substrate |  | 89% |
| COc1cc(Nc2ncc3c(n2)-c2ccc(Cl)cc2C(c2c(F)cccc2OC)=NC3)ccc1C(=O)O | CLK1 | kinase activity | 1 µM |  | 106% |
| CC(Cc1c(F)cccc1F)NS(=O)(=O)c1ccoc1C(=O)O (stereo not drawn) | malate dehydrogenase | enzyme activity, inhibitor | 200 µM, pH 7.0, 1% DMSO, aggregation counter-screen |  | 110% |
| C=CC(=O)N1CCC[C@@H](n2nc(-c3ccc(Oc4ccccc4)cc3)c3c(N)ncnc32)C1 | TEC (Homo sapiens, UniProt P42680) |  | 1 µM |  | 118% |
| O=C(O)c1ccc(Nc2ncc3c(n2)-c2ccc(Cl)cc2C(c2c(F)cccc2F)=NC3)cc1 | human Yes(h) | kinase activity | 1 µM |  | 20% |
| COc1ccc(F)cc1C(=O)NCc1ccc(-c2nn([C@@H](C)C(F)(F)F)c(N)c2C(N)=O)cc1 | TNK2 (Homo sapiens, UniProt Q07912) |  | 1000 nM, added: ATP at Km |  | 93.8 ± 3.4% |
| O=C(O)c1sccc1S(=O)(=O)NCCn1ccc2c(Br)cccc21 | malate dehydrogenase | enzyme activity, inhibitor | 200 µM, pH 7.0, 1% DMSO, aggregation counter-screen |  | 144% |
| NC/C(=C\F)COc1cccc(Cn2c(=S)[nH]c(=O)c3[nH]cnc32)c1 | Lactoperoxidase (LPO, Bos taurus, UniProt P80025) | H2O2 electrode | 5 µM | relative to: control | 61.8% and 40.2% and 77.8% |
| COc1ccc2cc(CNC(=O)C3(C(=O)O)CCC3)ccc2c1 | malate dehydrogenase | enzyme activity, inhibitor | 200 µM, pH 7.0, 1% DMSO, aggregation counter-screen |  | 79% |
| CCCOc1ccc(OC)c(F)c1C(=O)c1ccc(C(=O)N[C@@H]2CNC[C@H]2NC(=O)c2ccc3[nH]ncc3c2)cc1 | MET (Homo sapiens, UniProt P08581, D1228H) | enzyme activity | 10 µM |  | 36% |
| COc1cc(-c2cncc3c2CN(C)Cc2cc(N4CCNCC4)ccc2-3)cc(OC)c1OC | Phosphatidylinositol 4,5-bisphosphate 3-kinase catalytic subunit alpha isoform, with p85 alpha (PIK3CA, Homo sapiens, UniProt P42336, H1047R) | kinase activity | 1 µM, p110a(H1047R)/p85a)(h human, added: ATP 10 µM | relative to: DMSO | 91% |
| Cc1cc(Nc2cc(N3CCN(C)CC3)nc(Sc3ccc(NC(=O)C4CC4)cc3)n2)[nH]n1 | PTK2B (Homo sapiens, UniProt Q14289) | kinase activity, KinaseProfiler | 0.03 µM, species human | relative to: control | 88% |
| NC(=O)N1CCc2ccc(NS(=O)(=O)c3cc(Cl)cc(Cl)c3O)cc21 | malate dehydrogenase | enzyme activity, inhibitor | 200 µM, pH 7.0, 1% DMSO, aggregation counter-screen |  | 83% |
| COc1cc(F)ccc1-c1ncnc(Nc2cccc(C[S@](C)(=N)=O)c2)n1 | EPHA7 (Homo sapiens, UniProt Q15375) | kinase activity | 10 µM, added: 10 µM ATP |  | 67% |
| CNC(=O)c1ccc(NS(=O)(=O)c2cc(Cl)cc(Cl)c2O)c(Cl)c1 | malate dehydrogenase | enzyme activity, inhibitor | 200 µM, pH 7.0, 1% DMSO, aggregation counter-screen |  | 62% |
| CNc1ncc2c(/C=C/C(=O)N3CCC(OC)CC3)nn(Cc3cccc(C(F)(F)F)c3)c2n1 | SRPK1 (Homo sapiens, UniProt Q96SB4) | kinase activity, inhibitor | 1 µM | relative to: untreated control | 102% |

For quick reference, copied from above:
| Structure (SMILES) | target | assay | setting | how to read | remaining activity |
| --- | --- | --- | --- | --- | --- |
| COc1cc(Nc2ncc3c(n2)-c2ccc(Cl)cc2C(c2c(F)cccc2OC)=NC3)ccc1C(=O)O | CLK1 | kinase activity | 1 µM |  | 106% |
| CC(Cc1c(F)cccc1F)NS(=O)(=O)c1ccoc1C(=O)O (stereo not drawn) | malate dehydrogenase | enzyme activity, inhibitor | 200 µM, pH 7.0, 1% DMSO, aggregation counter-screen |  | 110% |
